Measured values pooled from the literature.
Each numbered part is a random draw from the data of one study; scales do not carry over between parts.

Block 1 — technique: protein binding microarray; form: double-stranded DNA, one strand shown; matrix: in vitro; concentration: not given; baseline: not given; reading: higher = stronger binding
Target: Histone acetyltransferase KAT6A, both winged helices, GST fusion (KAT6A, Homo sapiens, UniProt Q92794, residues 1-181)
Setting: 8-mer, flanks averaged, mean of 2 arrays, mostly near background
Residues (chain): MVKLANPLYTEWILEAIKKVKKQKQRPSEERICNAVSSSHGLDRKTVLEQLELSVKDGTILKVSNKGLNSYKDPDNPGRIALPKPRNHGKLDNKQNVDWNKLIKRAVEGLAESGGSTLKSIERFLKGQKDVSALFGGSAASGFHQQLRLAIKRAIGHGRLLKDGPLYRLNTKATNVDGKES
Strand	E-score
CGGACGTC	0.212
AAATTCGT	-0.00675
ATGAAGAC	-0.0607
GCGTGTCC	0.245
AAGGCCAT	-0.077
GAAAGACA	-0.0586

Block 2 — technique: RNA Bind-n-Seq; form: RNA; matrix: in vitro; concentration: 365 nM; baseline: no-protein control; reading: higher = stronger binding
Target: RNA binding protein fox-1 homolog 2, RRM domain, GST-SBP tag (RBFOX2, Homo sapiens, UniProt O43251-10, residues 100-194)
Setting: natural RNA segment, single round, ends assumed
Shared flanks, not repeated: GGGAGUUCUACAGUCCGACGAUC … UGGAAUUCUCGGGUGCCAA
Residues (chain): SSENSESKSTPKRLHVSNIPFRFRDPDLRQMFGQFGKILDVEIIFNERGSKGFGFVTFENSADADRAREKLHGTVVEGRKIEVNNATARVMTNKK
Strand	RBNS enrichment (R)
ACGGGUUCUCACCCCUGACUUCUGGAGGCUUCCCUUGAAGCUCUGUGCAAAAGGUGGGAGACAGAGCUGGACCUGCAGGGGUGGUCCCGCCACAACCCUGCGUGUGGACC	0.249
UUUGGGCACAUUUUACUUAGCUGGAGAACUAGGUUUAAAACAGCCUGGGUAGGAAAAUUAGAAGCAAGCUGGAUGCAGUGGCUCAUGCCUGUAAUCCCAACACUUUUGGG	0.511
UUUACUUGGGUACUUAAGAGUUAUUGUAUUAAUAAAAAGUUAUUGACUUGUCCUUUGAGAGCCUUCUUACAGAGAAUUGGUUAAAAAAACCAAACAUUCAAUUUGGAAUA	0.504
GGUGGGAGGGCGCUCCUGUUCCCAUCUCUGUGUUCCCUGGAGGCAGGUAUCACAAAGCAUUUGUGAAUUGCUUUAGGUGCAGGGACACCACCCACUCAGGACUCUUCCCC	0.296
GACUUUCCUGUGUGGCCACAGAAACCUGGGGGCAUUCCGUUGCAGAGGUGUCCUCUGUCACGUGUGUAACAGCUGGAACACAGUGGCCGUCUUCCCUCGGCUCUUGUUGG	0.328

Block 3 — technique: protein-binding microarray; form: double-stranded DNA, one strand shown; matrix: in vitro; concentration: 2200 nM top; setting: 60-bp whole probe; together with: salmon DNA 0.4 mg/ml; baseline: random background probes; reading: higher = stronger binding; shared flanks, not repeated: GCCTAGCAC … GTCTTGATTCGCTTGACGCTGCTG
Target: Interferon regulatory factor 7, full length, phosphomimetic (IRF7, Homo sapiens, UniProt Q92985, residues 1-503, S471D/S472D/S475D/S476D/S477D/S483D/S484D/S487D)
Target sequence (chain): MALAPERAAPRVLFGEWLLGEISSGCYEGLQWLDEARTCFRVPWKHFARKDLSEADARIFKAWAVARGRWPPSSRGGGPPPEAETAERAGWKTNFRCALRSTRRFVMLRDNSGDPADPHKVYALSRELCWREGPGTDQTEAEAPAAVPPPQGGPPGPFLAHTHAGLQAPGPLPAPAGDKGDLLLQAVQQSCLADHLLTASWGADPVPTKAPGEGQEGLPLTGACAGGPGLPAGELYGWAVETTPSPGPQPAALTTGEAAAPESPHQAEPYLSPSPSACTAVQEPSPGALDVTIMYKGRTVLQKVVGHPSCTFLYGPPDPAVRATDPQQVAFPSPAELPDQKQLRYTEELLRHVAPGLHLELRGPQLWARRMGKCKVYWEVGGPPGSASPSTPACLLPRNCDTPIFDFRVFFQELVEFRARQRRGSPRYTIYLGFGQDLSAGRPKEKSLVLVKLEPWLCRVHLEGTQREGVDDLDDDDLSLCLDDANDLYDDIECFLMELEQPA
Strand	fitted relative affinity [z-score]
CAGAGTCTAGCCATTGTGGGTGTGCTA	-0.561
TTAGAGATCAGTTTCGATTAGTGCTAG	5.35
GGTGTCTAGGTTAGGGATTAGTGCTAG	-0.0959
GGAGAAAAATCATGAAAATAGTGCTAG	-1.42
TCAAGGTTTTCTCTGGTACTGTGCTAG	0.382
TTAGAACTGAGTCGCGATTAGTGCTAG	-0.322

Further values, each from its own experiment
Molecule	target	test	test system	setting	scale	measurement	result
PhoQ, residues 284 288 289 292 302 303 TTCLQL	PhoP, residues 12 14 15 18 19 AGCRL (Escherichia coli, UniProt P23836)	Sort-seq, measured: YFP reporter	E. coli	PhoQ-PhoP variant library, together with: 10 µM Mg2+	baseline: high Mg2+ state, higher = stronger signaling	fold induction	3.39

For quick reference, copied from above (block 1):
Strand	E-score
GCGTGTCC	0.245
AAGGCCAT	-0.077
